Measured values collected from several papers.
Every numbered part comes from another study and shows a few of its results, in no order. Substitutions count along the parent as printed.

Sample 1 — effect on: enzyme activity; mode: inhibitor; concentration: 0.5 µM; reference: control
Target: 3-phosphoinositide-dependent protein kinase 1 (PDPK1, Homo sapiens, UniProt O15530)
Target sequence (O15530 1-556): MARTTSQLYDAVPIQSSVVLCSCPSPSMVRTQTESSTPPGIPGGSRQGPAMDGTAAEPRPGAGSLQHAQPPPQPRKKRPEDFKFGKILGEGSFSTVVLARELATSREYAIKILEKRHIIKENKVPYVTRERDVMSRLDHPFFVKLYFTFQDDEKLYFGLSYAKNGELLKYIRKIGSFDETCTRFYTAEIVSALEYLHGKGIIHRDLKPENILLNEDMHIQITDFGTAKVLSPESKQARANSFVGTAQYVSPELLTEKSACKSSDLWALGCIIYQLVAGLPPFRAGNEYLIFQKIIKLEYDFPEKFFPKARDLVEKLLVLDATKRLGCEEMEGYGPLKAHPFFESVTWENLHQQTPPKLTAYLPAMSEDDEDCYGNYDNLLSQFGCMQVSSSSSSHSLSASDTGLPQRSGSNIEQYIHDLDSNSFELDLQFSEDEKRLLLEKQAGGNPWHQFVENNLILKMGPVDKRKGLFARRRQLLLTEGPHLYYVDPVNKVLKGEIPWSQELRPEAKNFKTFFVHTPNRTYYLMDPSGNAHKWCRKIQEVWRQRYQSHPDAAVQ
`CCOc1nc(NC(=O)Cc2cc(OC)ccc2OC)cc(N)c1C#N` gave a remaining activity of 94.6%.
`Ic1cccc(CSc2nnc(-c3ccncc3)o2)c1` has a remaining activity of 98.3%.
With `COc1cc2c(cc1OC)-c1[nH]nc(Nc3cccc(F)c3)c1C2` the remaining activity was 95.9%.
With `C[C@@H]1CCN(C(=O)CC#N)C[C@@H]1N(C)c1ncnc2[nH]ccc12` the remaining activity was 94.1%.
For `O=C(Nc1cccc(Nc2nccc(Nc3cccc(C(F)(F)F)c3)n2)c1)C1CC1`, the remaining activity was 104%.
For `CCN(CC)C(=O)c1ccc(Nc2nc(OCC3CCCCC3)c3[nH]cnc3n2)cc1`, the remaining activity was 69.1%.
For `Cc1cc2ncc(-c3ccccc3)nc2cc1C`, the remaining activity was 103%.
`Cc1cn(-c2cc(NC(=O)c3ccc(C)c(Nc4nccc(-c5cccnc5)n4)c3)cc(C(F)(F)F)c2)cn1` gave a remaining activity of 84.6%.
The remaining activity of `O=c1cc(-c2cccc3c2Sc2ccccc2S3)oc(N2CCOCC2)c1` is reported as 104%.
For `c1ccc(-c2[nH]ncc2-c2ccnc3ccccc23)nc1`, the remaining activity was 93.8%.
`c1ccc(-c2cnc(Nc3ccc(OCCN4CCCC4)cc3)s2)cc1` has a remaining activity of 84.9%.

Sample 2 — method: protein-binding microarray; form: double-stranded DNA, one strand shown; sample: in vitro; concentration: 250 nM; setting: 60-bp whole probe; with: salmon DNA 0.4 mg/ml; reference: random background probes; reading: higher = stronger binding; all sequences stand within: GCCTAGCAC … GTCTTGATTCGCTTGACGCTGCTG
Target: Interferon regulatory factor 5, full length, phosphomimetic (IRF5, Homo sapiens, UniProt Q13568-2, residues 1-514, K96S/S451D/S453D/S456D/S462D)
The log fluorescence of `TTAGGTTTCGACTTTCGATTAGTGCTA` is reported as 10.1 z-score.
The log fluorescence of `TTAGGTTTCGGTTGCGGTTAGTGCTAG` is reported as 10.6 z-score.
`GACGCTCTCCTTTTCCTGACGTGCTAG` has a log fluorescence of 0.119 z-score.
With `CTTTCTTTGCTTCACCCTGGGTGCTAG` the log fluorescence was 1.15 z-score.
`AAGTGTATATACTATATGCATGTGCTA` gave a log fluorescence of 0.161 z-score.
`TTAGATCTCAGACTGGATTTGTGCTAG` gave a log fluorescence of -0.127 z-score.
For `TGAAGAATGCCTTTAATAAGGTGCTAG`, the log fluorescence was -0.0759 z-score.
With `GCCACTTTCCATTTCTGTTTGTGCTAG` the log fluorescence was 3.72 z-score.

Sample 3 — target: CCNB2, cyclin fold, Cln2 fusion (human); method: yeast growth competition, sequencing; sample: yeast; setting: weak parent motif; reference: not given; reading: higher = stronger binding
Starting sequence: WEE1 docking peptide (human); HKTFRKLRLFDTP
`L7G`: “normalised enrichment score” 1.27.
For `T12A`, “normalised enrichment score” read 0.701.
Under “normalised enrichment score”, `T12P` is recorded as 0.932.
Under “normalised enrichment score”, `T12N` is recorded as 1.85.
`D11M` — result for “normalised enrichment score”: 0.825.
`H1E` — result for “normalised enrichment score”: 0.123.
`K2V`: “normalised enrichment score” 0.607.
`D11I` — result for “normalised enrichment score”: 0.396.

Sample 4 — effect on: binding; method: radioligand binding; concentration: 10 µM
Target: Beta-2 adrenergic receptor (ADRB2, Homo sapiens, UniProt P07550)
`Cc1nc(N2CC[C@@H](O)C2)ncc1-c1cc(C(F)(F)F)cc2[nH]ncc12` has an inhibition of -2.23%.
`O=C(Nc1cccnn1)N1CCC(=Cc2cccc(Oc3ccc(C(F)(F)F)cn3)c2)CC1` has an inhibition of 0.51%.
The inhibition of `CC(=O)N1CCC(c2ccc(C(=O)NC(=N)N)cc2C(F)(F)F)CC1` is reported as -9.75%.
The inhibition of `O=C(NC[C@@H]1[C@H]2CN(C(=O)OCc3cc(C(F)(F)F)cc(C(F)(F)F)c3)C[C@@H]12)c1ccc2[nH]nnc2c1` is reported as -10.7%.

Repeated from above (sample 3):
`L7G`: “normalised enrichment score” 1.27.
For `T12A`, “normalised enrichment score” read 0.701.
Under “normalised enrichment score”, `T12P` is recorded as 0.932.
Under “normalised enrichment score”, `T12N` is recorded as 1.85.
